Assay results of several laboratories.
Each line is one published result; not all experiments were run side by side.
SRC: Proto-oncogene tyrosine-protein kinase Src (SRC, Homo sapiens, UniProt P12931)

| SMILES | target | test | setting | how to read | endpoint | result |
| --- | --- | --- | --- | --- | --- | --- |
| CNC(=O)c1cc2c(Oc3ccc(NC(=O)C4(C(=O)Nc5ccc(F)cc5)CC4)cc3)ccnc2cc1OC | SRC | kinase activity | 1 µM | – | inhibition | 97% |
| C=CC(=O)N1CCC(COCC(=O)N2CCN(c3nc(-c4cnc(N)nc4C(F)F)nc(N4CCOC[C@@H]4C)n3)CC2)CC1 | SRC | KINOMEscan | 1 µM | – | remaining binding | 94% |
| [2H]c1cc(C)c(NC(=O)c2cnc(Nc3cc(N4CCC(O)CC4)nc(C)n3)s2)c(Cl)c1 | SRC | – | 0.001 µM | – | inhibition | > 50% |
| COc1cc2ncnc(Nc3ccc(Oc4ccccc4)cc3C)c2cc1OC | Proto-oncogene tyrosine-protein kinase Src, N1 isoform (SRC, Homo sapiens, UniProt P12931) | kinase activity, inhibitor | 1 µM | – | inhibition | 87% |
| O=C1NC(=O)/C(=C/c2ccc(-c3ccc(F)cc3O)o2)S1 | SRC | enzyme activity | 10 µM | – | remaining activity | 96% |
| COc1cc(-c2cncc3c2CN(C)Cc2cc(N4CCNCC4)ccc2-3)cc(OC)c1OC | SRC | kinase activity | 1 µM, human enzyme, together with: ATP 10 µM | reference: DMSO control | remaining activity | 92% |
| CC(C)(C)n1nc(-c2ccc(Cl)cc2)c2c(N)ncnc21 | SRC | autophosphorylation, cellular ELISA | – | reference: cellular IC50 over biochemical Ki | potency loss | 44 fold |
| Cc1cnc(NC2CCOCC2)nc1-n1cnc(C(=O)NC(CN)c2cc(F)cc(Cl)c2)c1 (stereo not shown) | SRC | kinase activity, radiometric | 1 µM, kinase domain construct | – | remaining activity | 97% |
| Cc1cc(Nc2cc(N3CCN(C)CC3)nc(Sc3ccc(NC(=O)C4CC4)cc3)n2)[nH]n1 | SRC | kinase activity | 0.03 µM, residues 1-530 | reference: control | remaining activity | 78% |
| O=C(NC1CCC1)c1ccc2nc(-c3cccc(NS(=O)(=O)NCCN4CCCCC4)c3)cn2c1 | SRC | enzyme activity | 10 µM | – | remaining activity | 88% |
| c1cnc2ccc(Nc3nc(NC4CC4)c4nc[nH]c4n3)cc2c1 | SRC | kinase activity, inhibitor, SelectScreen kinase profiling | 1 µM | reference: control | remaining activity | 98% |
| C[C@H]1Oc2cc(cnc2N)-c2c(nn(C)c2C#N)CN(C)C(=O)c2ccc(F)cc21 | SRC | enzyme activity, inhibitor | concentration not given, together with: 10 µM ATP | – | inhibition | no inhibition |
| [2H]c1cc(C)c(NC(=O)c2cnc(Nc3cc(N4CCCCC4)nc(C)n3)s2)c(Cl)c1 | SRC | – | 0.0001 µM | – | inhibition | > 50% |
